# Experimental data pooled from the literature.
# BRD4 BD1: Bromodomain-containing protein 4, BD1 (BRD4, Homo sapiens, UniProt O60885)
# BRD4 BD2: Bromodomain-containing protein 4, BD2 (BRD4, Homo sapiens, UniProt O60885)
# UCHL1: Ubiquitin carboxyl-terminal hydrolase isozyme L1 (UCHL1, Homo sapiens, UniProt P09936)
# Chain of UniProt P09936 (whole entry, looked up): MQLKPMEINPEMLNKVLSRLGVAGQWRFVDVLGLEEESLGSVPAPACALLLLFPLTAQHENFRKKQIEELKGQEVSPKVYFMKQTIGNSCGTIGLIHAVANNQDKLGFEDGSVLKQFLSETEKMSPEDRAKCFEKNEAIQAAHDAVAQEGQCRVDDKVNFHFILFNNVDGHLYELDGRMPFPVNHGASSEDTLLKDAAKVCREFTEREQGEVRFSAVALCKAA
SMILES,target,test,conditions,measurement,value
COc1cc(N2CCN(C)CC2)ccc1Nc1ncc2c(n1)N(C)c1ccccc1C(=O)N2,BRD4 BD1,,,IC50,> 10 µM
Cc1[nH]c2ccccc2c1-c1csc(-c2c[nH]c3ccccc23)n1,BRD4 BD2,"protein-DNA interaction, AlphaScreen",DNA-binding domain,IC50,3.39 µM
CC#CC(=O)NC1CCN(C(=O)c2cc(Cl)ccc2F)C1 (stereo not shown),UCHL1,"covalent, intact protein LC-MS",12.5 µM,labelling,13%
CCOc1ccc(C(C)=O)cc1NC(=O)c1cc(NC(C)=O)cc(NC(=O)c2ccco2)c1,BRD4 BD1,inhibitor,,IC50,> 200 µM
CCN(CC)CCCC(C)Nc1ccnc2cc(Cl)ccc12 (stereo not shown),BRD4 BD1,"binding, AlphaScreen",together with: tetra-acetylated H4 peptide,IC50,> 10 µM
CN(C)C(=O)c1cc2cnc(Nc3cc(C(=O)O)cc(-c4cccc5c(=O)cc(N6CCOCC6)oc45)c3)nc2n1C1CCCC1,BRD4 BD2,inhibitor,,IC50,> 10 µM
Cc1cc2c(cc1N1C(=O)c3cccc4c(N5CCN(CC6CC6)CC5)ccc(c34)C1=O)n(C)c(=O)n2C,BRD4 BD2,"binding, inhibitor, HTRF","BD2 domain, H4 acetyl peptide",IC50,> 10.8 µM
COc1cc(N2CCN(C)CC2)ccc1Nc1ncc2c(n1)N(C)c1ccccc1C(=O)N2C,BRD4 BD1,,,IC50,0.888 µM
CN(C1CCCCC1)S(=O)(=O)c1ccccc1NC(=O)CCl,UCHL1,"covalent, intact protein LC-MS",12.5 µM,labelling,21.5%
CN(C)C(=O)c1cc2cnc(Nc3cc(C(F)(F)F)c(-c4cccc5c(=O)cc(N6CCOCC6)oc45)cn3)nc2n1C1CCCC1,BRD4 BD2,inhibitor,,IC50,> 10 µM

# Some of these lines once more:
SMILES,target,test,conditions,measurement,value
Cc1[nH]c2ccccc2c1-c1csc(-c2c[nH]c3ccccc23)n1,BRD4 BD2,"protein-DNA interaction, AlphaScreen",DNA-binding domain,IC50,3.39 µM
